Assay results pooled from the literature.
A part holds a random share of what one study measured.

Set 1
Organism: Sarcocystis neurona
Read-out: parasite growth
Tested at: 10 µM
Setting: second screen
Reference: untreated
`CCN1CC(CCN2CCOCC2)C(c2ccccc2)(c2ccccc2)C1=O.Cl` (stereo not drawn): “log2 fold change” 0.19.
`Cc1nccn1CC1CCc2c(c3ccccc3n2C)C1=O.Cl` (stereo not drawn) — result for “log2 fold change”: 0.42.
`CN1C(=O)CC[C@H]1c1cccnc1`: “log2 fold change” 0.47.
Under “log2 fold change”, `Cl.NC1CCN(c2cccc(Cl)n2)CC1` is recorded as 0.3.
`CC1(C)S[C@@H]2[C@H](NC(=O)Cc3ccccc3)C(=O)N2[C@H]1C(=O)[O-].[K+]` — result for “log2 fold change”: 0.51.
For `COc1ccc(CC(C)NCC(O)c2ccc(O)c(NC=O)c2)cc1.COc1ccc(CC(C)NCC(O)c2ccc(O)c(NC=O)c2)cc1.O.O.O=C(O)/C=C/C(=O)O` (stereo not drawn), “log2 fold change” read 0.47.
Under “log2 fold change”, `Cl.Nc1nc2ccc(OC(F)(F)F)cc2s1` is recorded as 2.15.

Set 2
Cell line: HaCaT
Tested at: 100 µM
Time: 60 h
`Cc1ccc(NC(=O)C2(c3ccc4c(c3)OC(F)(F)O4)CC2)nc1-c1cccc(C(=O)O)c1` gave a viability of 122%.
`CC1=C(C/C=C(\C)CCC[C@H](C)CCC[C@H](C)CCCC(C)C)C(=O)c2ccccc2C1=O` has a viability of 115%.
With `CC(C)[C@H](N)C(=O)OCCOCn1cnc2c(=O)[nH]c(N)nc21` the viability was 149%.
The viability of `Cc1cc(=O)[nH]c(=S)[nH]1` is reported as 152%.
For `CO[C@H]1/C=C/O[C@@]2(C)Oc3c(C)c(O)c4c(O)c(c(/C=N/N5CCN(C)CC5)c(O)c4c3C2=O)NC(=O)/C(C)=C\C=C\[C@H](C)[C@H](O)[C@@H](C)[C@@H](O)[C@@H](C)[C@H](OC(C)=O)[C@@H]1C`, the viability was 108%.

Set 3
Host: human
Matrix: microsomes or S9
Tested at: 2 µM
Time: 0.5 h
`CCN(CC)CCCNc1nc(-n2nc(C)cc2C)nc2sc3c(c12)CC(C)(C)OC3` gave a remaining compound of 46.5%.
With `C(=C\c1ccccc1)/CNCCCN1CCOCC1` the remaining compound was 84.1%.
`OCC1O[C@@H](Oc2cc(O)cc(C3c4c(/C=C/c5ccc(O)cc5)cc(O)cc4OC3c3ccc(O)cc3)c2)C(O)[C@H](O)[C@@H]1O` (stereo partly drawn) has a remaining compound of > 99%.
For `Cc1c(C(=O)Cn2nnn(-c3ccccc3)c2=O)sc2ccccc12`, the remaining compound was 97.2%.
For `CC(C)S(=O)(=O)c1ccc(CC(=O)NCC(O)Cn2ccccc2=O)cc1` (stereo not drawn), the remaining compound was 0.195%.
For `O=C(Nc1n[nH]c2cc(Br)ccc12)c1cc(-c2cccnc2)[nH]n1`, the remaining compound was 70.9%.
`CC(=O)N1N=C(c2c(-c3ccccc3)c3cc(Br)ccc3[nH]c2=O)CC1c1ccco1` (stereo not drawn) has a remaining compound of 36%.
`CCOC(=O)c1cccc(NC(=O)N2Cc3c(sc4c3CCCC4)-n3cccc3C2c2cccc(Cl)c2)c1` (stereo not drawn) has a remaining compound of 50.4%.

Mixed results
`N#CC1(c2ccccn2)CCN(Cc2cc(C(=O)N3CCCC3)c(=O)n3ccccc23)CC1` — result for “cells with bright nuclei”: 40% (U2OS; Hoechst high-content imaging; 10-fold recommended concentration, 24 h).

Excerpt of the above (set 2):
The viability of `Cc1cc(=O)[nH]c(=S)[nH]1` is reported as 152%.
